{"data": "Published values from different studies", "KDM1A": "Lysine-specific histone demethylase 1A (KDM1A, Homo sapiens, UniProt O60341)", "POLQ helicase domain": "DNA polymerase theta, helicase domain (POLQ, Homo sapiens, UniProt O75417)", "note": "± gives the spread as reported.", "UniProt O75417, sequence (whole entry, looked up)": "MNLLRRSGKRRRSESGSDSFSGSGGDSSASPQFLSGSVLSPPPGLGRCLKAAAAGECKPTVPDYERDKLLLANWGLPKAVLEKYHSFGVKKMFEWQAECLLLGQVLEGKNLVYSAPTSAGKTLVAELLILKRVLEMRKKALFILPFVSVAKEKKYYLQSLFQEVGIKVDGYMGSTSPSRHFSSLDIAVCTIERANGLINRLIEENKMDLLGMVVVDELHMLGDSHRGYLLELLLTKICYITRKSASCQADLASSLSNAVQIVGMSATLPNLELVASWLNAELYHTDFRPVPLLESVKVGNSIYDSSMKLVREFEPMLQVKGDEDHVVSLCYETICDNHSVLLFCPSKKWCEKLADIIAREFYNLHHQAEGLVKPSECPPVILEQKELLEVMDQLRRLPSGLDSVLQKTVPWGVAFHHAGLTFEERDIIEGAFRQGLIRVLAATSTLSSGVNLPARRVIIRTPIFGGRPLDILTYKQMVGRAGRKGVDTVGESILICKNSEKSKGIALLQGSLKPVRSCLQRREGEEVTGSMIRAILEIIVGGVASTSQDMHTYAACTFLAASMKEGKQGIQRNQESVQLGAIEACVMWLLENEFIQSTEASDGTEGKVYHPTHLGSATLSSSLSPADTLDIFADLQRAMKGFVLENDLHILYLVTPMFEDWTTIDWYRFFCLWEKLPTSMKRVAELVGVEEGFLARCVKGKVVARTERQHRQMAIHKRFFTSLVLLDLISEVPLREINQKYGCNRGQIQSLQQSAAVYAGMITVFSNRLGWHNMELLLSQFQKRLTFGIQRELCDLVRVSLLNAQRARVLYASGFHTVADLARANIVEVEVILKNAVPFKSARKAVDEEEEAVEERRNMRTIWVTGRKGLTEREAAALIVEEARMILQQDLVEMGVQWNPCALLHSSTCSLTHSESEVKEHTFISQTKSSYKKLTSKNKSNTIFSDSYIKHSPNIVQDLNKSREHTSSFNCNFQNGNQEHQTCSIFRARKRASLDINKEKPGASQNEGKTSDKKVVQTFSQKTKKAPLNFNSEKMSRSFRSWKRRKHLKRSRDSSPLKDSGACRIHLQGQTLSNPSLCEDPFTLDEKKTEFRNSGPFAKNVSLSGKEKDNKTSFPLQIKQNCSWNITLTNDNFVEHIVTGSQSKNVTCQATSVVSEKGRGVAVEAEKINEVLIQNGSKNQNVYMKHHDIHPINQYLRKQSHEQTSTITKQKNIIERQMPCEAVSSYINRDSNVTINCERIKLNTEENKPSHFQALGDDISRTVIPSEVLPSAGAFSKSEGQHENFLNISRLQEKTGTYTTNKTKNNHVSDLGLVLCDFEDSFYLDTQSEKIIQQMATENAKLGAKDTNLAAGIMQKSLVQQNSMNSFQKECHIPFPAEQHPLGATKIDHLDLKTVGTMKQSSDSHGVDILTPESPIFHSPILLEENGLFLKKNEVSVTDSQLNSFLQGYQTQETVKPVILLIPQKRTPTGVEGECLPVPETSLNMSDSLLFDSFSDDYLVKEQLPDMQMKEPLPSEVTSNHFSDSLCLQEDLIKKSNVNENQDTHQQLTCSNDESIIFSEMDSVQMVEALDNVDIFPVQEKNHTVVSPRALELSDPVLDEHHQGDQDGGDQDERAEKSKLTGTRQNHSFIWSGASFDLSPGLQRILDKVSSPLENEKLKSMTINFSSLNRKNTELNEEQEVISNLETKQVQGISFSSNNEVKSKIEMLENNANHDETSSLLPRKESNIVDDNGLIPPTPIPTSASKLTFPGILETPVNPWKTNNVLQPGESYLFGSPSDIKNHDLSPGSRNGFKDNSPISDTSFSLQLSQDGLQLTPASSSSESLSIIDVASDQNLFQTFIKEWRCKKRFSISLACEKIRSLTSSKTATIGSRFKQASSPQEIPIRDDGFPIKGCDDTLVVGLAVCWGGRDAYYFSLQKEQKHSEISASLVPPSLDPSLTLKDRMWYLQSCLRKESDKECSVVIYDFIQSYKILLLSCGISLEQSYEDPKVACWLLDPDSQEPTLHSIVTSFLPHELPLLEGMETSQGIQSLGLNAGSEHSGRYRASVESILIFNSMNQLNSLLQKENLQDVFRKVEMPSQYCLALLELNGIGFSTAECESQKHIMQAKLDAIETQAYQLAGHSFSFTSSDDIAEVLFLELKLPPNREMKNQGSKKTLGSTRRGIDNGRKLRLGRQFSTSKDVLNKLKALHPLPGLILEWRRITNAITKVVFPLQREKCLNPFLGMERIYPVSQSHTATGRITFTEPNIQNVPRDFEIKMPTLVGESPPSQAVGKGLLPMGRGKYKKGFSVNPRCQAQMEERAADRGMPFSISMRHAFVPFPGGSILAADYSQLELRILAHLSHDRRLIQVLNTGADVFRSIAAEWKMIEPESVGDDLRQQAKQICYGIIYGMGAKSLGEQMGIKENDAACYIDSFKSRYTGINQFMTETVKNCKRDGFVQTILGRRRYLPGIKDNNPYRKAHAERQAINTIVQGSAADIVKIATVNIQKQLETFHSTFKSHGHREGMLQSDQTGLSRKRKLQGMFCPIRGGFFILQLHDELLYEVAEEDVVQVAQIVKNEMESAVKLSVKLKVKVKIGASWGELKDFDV", "UniProt Q9HB29, sequence (whole entry, looked up)": "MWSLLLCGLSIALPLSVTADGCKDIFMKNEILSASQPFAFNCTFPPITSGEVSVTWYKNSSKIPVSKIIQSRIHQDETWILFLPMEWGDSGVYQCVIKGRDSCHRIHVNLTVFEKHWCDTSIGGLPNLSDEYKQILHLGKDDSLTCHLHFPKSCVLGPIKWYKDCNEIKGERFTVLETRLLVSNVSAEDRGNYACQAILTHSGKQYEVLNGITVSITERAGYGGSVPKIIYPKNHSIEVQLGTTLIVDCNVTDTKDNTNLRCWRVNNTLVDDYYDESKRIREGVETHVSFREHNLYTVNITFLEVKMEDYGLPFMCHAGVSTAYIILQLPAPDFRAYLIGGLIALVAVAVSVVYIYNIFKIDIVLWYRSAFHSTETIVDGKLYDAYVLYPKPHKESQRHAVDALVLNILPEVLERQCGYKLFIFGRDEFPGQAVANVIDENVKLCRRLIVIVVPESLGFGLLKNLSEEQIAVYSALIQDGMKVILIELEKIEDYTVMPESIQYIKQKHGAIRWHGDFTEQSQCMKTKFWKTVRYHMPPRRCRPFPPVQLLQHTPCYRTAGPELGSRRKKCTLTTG", "UniProt P46116, sequence (whole entry, looked up)": "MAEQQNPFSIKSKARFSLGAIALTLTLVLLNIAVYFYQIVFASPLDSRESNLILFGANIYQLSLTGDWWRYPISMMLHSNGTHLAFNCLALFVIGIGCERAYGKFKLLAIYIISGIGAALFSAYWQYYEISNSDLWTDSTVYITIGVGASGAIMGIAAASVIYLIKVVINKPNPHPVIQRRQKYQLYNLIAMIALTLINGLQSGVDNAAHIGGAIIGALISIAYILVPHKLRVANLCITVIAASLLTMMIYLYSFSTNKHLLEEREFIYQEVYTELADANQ", "UniProt P07711, sequence (whole entry, looked up)": "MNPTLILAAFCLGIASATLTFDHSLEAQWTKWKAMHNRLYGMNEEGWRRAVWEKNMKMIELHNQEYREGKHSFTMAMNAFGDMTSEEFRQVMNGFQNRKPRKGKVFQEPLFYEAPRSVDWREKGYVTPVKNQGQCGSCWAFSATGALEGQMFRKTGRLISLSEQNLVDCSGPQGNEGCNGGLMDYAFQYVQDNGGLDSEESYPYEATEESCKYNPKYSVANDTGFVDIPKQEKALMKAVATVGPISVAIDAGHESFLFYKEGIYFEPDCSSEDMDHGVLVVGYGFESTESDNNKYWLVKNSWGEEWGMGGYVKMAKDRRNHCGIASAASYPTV", "UniProt P12295, sequence (whole entry, looked up)": "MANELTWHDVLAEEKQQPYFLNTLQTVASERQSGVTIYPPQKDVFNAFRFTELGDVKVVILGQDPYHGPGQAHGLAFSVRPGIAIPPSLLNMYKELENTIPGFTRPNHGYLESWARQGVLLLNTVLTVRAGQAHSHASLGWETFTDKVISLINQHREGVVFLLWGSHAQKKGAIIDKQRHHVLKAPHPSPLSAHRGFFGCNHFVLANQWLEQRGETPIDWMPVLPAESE", "UniProt P10721, sequence (whole entry, unmodified, looked up)": "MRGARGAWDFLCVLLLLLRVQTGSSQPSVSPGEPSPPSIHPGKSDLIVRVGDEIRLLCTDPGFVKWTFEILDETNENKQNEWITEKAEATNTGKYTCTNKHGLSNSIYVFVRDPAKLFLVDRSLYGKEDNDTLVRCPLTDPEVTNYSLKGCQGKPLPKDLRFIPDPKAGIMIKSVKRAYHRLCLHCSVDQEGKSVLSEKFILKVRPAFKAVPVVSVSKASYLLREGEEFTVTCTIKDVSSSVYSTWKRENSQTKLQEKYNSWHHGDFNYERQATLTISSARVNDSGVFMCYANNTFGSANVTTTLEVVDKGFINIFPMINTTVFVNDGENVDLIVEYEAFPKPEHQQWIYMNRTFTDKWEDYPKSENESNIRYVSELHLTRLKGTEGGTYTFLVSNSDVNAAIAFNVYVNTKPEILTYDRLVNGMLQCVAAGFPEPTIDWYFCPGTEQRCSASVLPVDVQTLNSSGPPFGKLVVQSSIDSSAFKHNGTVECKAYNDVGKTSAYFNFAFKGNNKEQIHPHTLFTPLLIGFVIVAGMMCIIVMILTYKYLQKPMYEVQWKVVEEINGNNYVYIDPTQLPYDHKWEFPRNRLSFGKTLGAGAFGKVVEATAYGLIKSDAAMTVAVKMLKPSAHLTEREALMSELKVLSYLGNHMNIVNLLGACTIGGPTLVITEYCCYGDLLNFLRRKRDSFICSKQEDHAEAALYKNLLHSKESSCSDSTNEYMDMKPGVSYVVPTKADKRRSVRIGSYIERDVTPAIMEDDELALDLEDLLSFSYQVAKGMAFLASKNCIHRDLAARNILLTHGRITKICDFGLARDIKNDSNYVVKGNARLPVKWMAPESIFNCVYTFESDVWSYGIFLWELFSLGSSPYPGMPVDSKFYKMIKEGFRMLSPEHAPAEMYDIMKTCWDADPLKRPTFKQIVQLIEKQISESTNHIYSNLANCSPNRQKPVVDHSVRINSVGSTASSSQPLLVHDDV"}
{"SMILES": "COc1ccc(-c2ccc(C(=O)N(C)CCO)cc2)c(OC)c1", "target": "ung (Escherichia coli, UniProt P12295)", "assay": "enzyme activity, inhibitor", "setting": "concentration not given, counter-screen", "remaining activity": "105 ± 3%"}
{"SMILES": "O=C1CC(CCc2ccccc2)N1S(=O)(=O)c1cccc(Cl)c1 (stereo not shown)", "target": "Rhomboid protease AarA (Providencia stuartii, UniProt P46116)", "assay": "enzyme activity, inhibitor", "setting": "100 µM", "remaining activity": "43%"}
{"SMILES": "CC(C)[C@@H]1NC(=O)[C@H](Cc2ccccc2)NC(=O)CSC[C@@H](C(N)=O)NC(=O)[C@H](CCC(=O)O)NC(=O)[C@H](CO)NC(=O)[C@H](Cc2c[nH]c3cccc(Cl)c23)NC(=O)[C@H](C2CCCCC2)NC(=O)[C@H](C(C)C)NC(=O)[C@H](Cc2ccc(O)cc2)NC(=O)[C@H](CC(=O)O)NC(=O)[C@H](Cc2c[nH]c3ccccc23)NC(=O)[C@H](Cc2ccc(N)nc2)NC(=O)[C@H](Cc2c[nH]c3ccc(Cl)cc23)NC(=O)[C@H](CCC(=O)O)NC1=O", "target": "Interleukin-1 receptor-like 2 (IL1RL2, Homo sapiens, UniProt Q9HB29)", "assay": "reporter gene (SEAP), inhibitor, HEK-Blue IL-36R reporter", "system": "HEK-Blue IL-36R cells", "setting": "0.41 µM, 6 h, together with: IL-36γ 1 ng/mL", "remaining activity": "83.7%"}
{"SMILES": "CNC(=O)c1cccc([C@@H]2C[C@H]2NC2CCC2)c1 (racemic)", "target": "KDM1A", "assay": "demethylase activity, inhibitor", "setting": "0.02286 µM, together with: H3K4me2 peptide", "remaining activity": "94.9%"}
{"SMILES": "COc1ccccc1-c1ccncc1C(=O)Nc1nnc(OCc2ccc(Cl)cc2)s1", "target": "POLQ helicase domain", "assay": "ATPase activity, ADP-Glo", "setting": "30 µM", "how to read": "relative to: 0 µM cpd", "remaining activity": "15%"}
{"SMILES": "COc1cc(Nc2nc(C)cc(-c3cnn4nc(OC)ccc34)n2)cc(C(F)(F)F)c1", "target": "KIT (Homo sapiens, UniProt P10721, V559D/V654A)", "assay": "inhibitor", "setting": "1 µM", "how to read": "relative to: control", "remaining activity": "62%"}
{"SMILES": "COC(=O)[C@@]1(C)C=C(C(=O)Nc2cccc(C(=O)Nc3ccc(Nc4nccc(-c5cccnc5)n4)c(C)c3)c2)C(=O)CC1", "target": "MAPK14 (Homo sapiens, UniProt Q16539)", "assay": "kinase activity, inhibitor", "setting": "0.5487 µM, unit not given", "how to read": "relative to: no inhibitor", "remaining activity": 1.09}
{"SMILES": "O=C(Nc1nncs1)c1cccc([C@@H]2C[C@H]2NC2CCC2)c1", "target": "KDM1A", "assay": "demethylase activity, inhibitor, Amplex Red", "setting": "0.002743 µM, together with: H3K4me2 peptide", "how to read": "relative to: vehicle", "remaining activity": "98.7%"}
{"SMILES": "COc1ccc(NC(=O)Nc2ccc3c(c2)C(=O)N(C(C)CO)CC(C)C(CN(C)Cc2ccc4c(c2)OCO4)O3)cc1 (stereo not shown)", "target": "ROCK-II (rat)", "assay": "kinase activity", "setting": "0.03 µM", "how to read": "relative to: control", "remaining activity": "94%"}
{"SMILES": "Cc1nnc(NC(=O)c2cc([C@@H]3C[C@H]3NC3CCC3)ccc2Br)s1 (relative stereo)", "target": "KDM1A", "assay": "demethylase activity, inhibitor, Amplex Red", "setting": "2.222 µM, together with: H3K4me2 peptide", "how to read": "relative to: vehicle", "remaining activity": "57.3%"}
{"SMILES": "COc1ccccc1-c1ccncc1C(=O)Nc1ccc(OCc2ccc(Cl)cc2)nn1", "target": "POLQ helicase domain", "assay": "ATPase activity, ADP-Glo", "setting": "0.015 µM", "how to read": "relative to: 0 µM cpd", "remaining activity": "100%"}
{"SMILES": "COC(=O)c1cccc([C@@H]2C[C@H]2NC2CCC2)c1", "target": "KDM1A", "assay": "demethylase activity, inhibitor", "setting": "5.556 µM, together with: H3K4me2 peptide", "remaining activity": "65.5%"}
{"SMILES": "COC(=O)c1cc2cc3c(cc2oc1=O)N(CC(=O)NC(Cc1cccc(Cl)c1)C(=O)NCC=CS(=O)(=O)c1ccccc1)CCC3 (stereo not shown)", "target": "Procathepsin L (CTSL, Homo sapiens, UniProt P07711)", "assay": "inhibitor", "setting": "5 µM, 60 min, together with: Z-Phe-Arg-pNA", "how to read": "relative to: uninhibited control", "remaining activity": "7%"}
